# Measured values from different studies.
# ± gives the spread as reported.
Structure (SMILES),cell line,assay,test system,conditions,EC50
CCn1cc(-c2cc(Cn3ccnc3)cc3c2CCN([C@H](c2cc(OC)ccn2)C2CC2)C3=O)c(C(F)(F)F)n1,CAMA-1,"cell growth, inhibitor",,120 h,6.86 µM
CC(=O)O[C@H]1C(=O)[C@@]2(C)[C@H]([C@H](OC(=O)c3ccccc3)[C@]3(O)C[C@H](OC(=O)[C@H](O)[C@@H](NC(=O)c4ccccc4)c4ccccc4)C(C)=C1C3(C)C)[C@]1(OC(C)=O)CO[C@@H]1C[C@@H]2O,EPC-2 pre-malignant,"cell viability, PrestoBlue",,120 h,0.00087 µM
Cc1noc(C)c1CC(=O)N1CCOc2c(cc(-c3cccnc3)cc2OCC2CCCN(C)C2)C1 (stereo not shown),J774.A1 macrophages,cytotoxicity,,,> 50 µM
CC(C)c1nc(CN(C)C(=O)N[C@H](C(=O)N[C@@H](Cc2ccccc2)C[C@H](O)[C@H](Cc2ccccc2)NC(=O)OCc2cncs2)C(C)C)cs1,ΔE-expressing cells,"ΔE mislocalization, high-content imaging",,,2.06 µM
Cc1noc(C)c1CC(=O)N1CCOc2c(cc(Br)cc2OCC2CCCN(C)C2)C1 (stereo not shown),J774.A1 macrophages,cytotoxicity,,,> 50 µM
C/C=C(/C)C(=O)OCc1nccc2c1C(=O)C(O)=C(C)C2=O,786-0 HRE-luciferase reporter cells,"reporter gene, inhibitor",,24 h,> 100 µM
C[C@]12CCCN1CC1=NNC(=O)c3cc(F)cc4[nH]c2c1c34,LoVo,,,together with: temozolomide,> 3 µM
CC(C)CN(C[C@@H](O)[C@H](Cc1ccccc1)NC(=O)O[C@H]1CCOC1)S(=O)(=O)c1ccc(N)cc1,ΔE-expressing cells,"ΔE mislocalization, high-content imaging",,,inactive
[Cl-].[Cl-].[Os+2].c1cnc2c(c1)ccc1cccnc12.c1cnc2c(c1)ccc1cccnc12.c1cnc2c(c1)ccc1cccnc12,SK-MEL-28,"photocytotoxicity, resazurin",,"visible light, normoxia",40.3 ± 1.5 µM
COc1cnc2cccc(N3CCc4c(cc(Cn5ccnc5C)cc4-c4cn(C)nc4C(F)(F)F)C3=O)c2c1,ZR-75-1,"cell growth, inhibitor",,120 h,8.1 µM
CNc1ncc2c(/C=C/C(=O)N3CCC(OC)CC3)nn(Cc3cccc(C(F)(F)F)c3)c2n1,CP-A pre-malignant,"cell viability, PrestoBlue",,120 h,0.41 µM
C[C@@]12CCCc3coc(c31)C(=O)c1cc3c(cc12)C(=O)C=CC3=O,786-0 HRE-luciferase reporter cells,"reporter gene, inhibitor",,24 h,> 100 µM
Cc1cccc(C)c1OCC(=O)N[C@@H](Cc1ccccc1)[C@@H](O)C[C@H](Cc1ccccc1)NC(=O)[C@H](C(C)C)N1CCCNC1=O,ΔE-expressing cells,"ΔE mislocalization, high-content imaging",,,4.69 µM
N.N.O=C([O-])C1(C(=O)[O-])CCC1.[Pt+2],PEO1 platinum-sensitive,cell viability,,,58.9 µM
CC1(C)CCC(CN2CCN(c3ccc(C(=O)NS(=O)(=O)c4ccc(NCC5CCOCC5)c([N+](=O)[O-])c4)c(Oc4cnc5[nH]ccc5c4)c3)CC2)=C(c2ccc(Cl)cc2)C1,canine normal blood CD3+ T cells,cell killing,,24 h,1.99 µM
O=C(c1cc(Cc2n[nH]c(=O)c3ccccc23)ccc1F)N1CCN(C(=O)C2CC2)CC1,MDA-MB-436 (BRCA1 deficient),"cell growth, inhibitor, CellTiter-Glo",,7 days,0.021 µM
Cc1noc(C)c1CC(=O)N1CCOc2c(cc(CC3CC3)cc2OCC2CCCN(C)C2)C1 (stereo not shown),J774.A1 macrophages,cytotoxicity,,,> 50 µM
COc1cc(-c2nn(CCN3CCC(N(C)C)CC3)c3ncnc(N)c23)ccc1NC(=O)OC(C)(C)C,CP-A pre-malignant,"cell viability, PrestoBlue",,120 h,27.8 µM
Cc1c(O)cccc1C(=O)N[C@@H](CSc1ccccc1)[C@H](O)CN1C[C@H]2CCCC[C@H]2C[C@H]1C(=O)NC(C)(C)C,ΔE-expressing cells,"ΔE mislocalization, high-content imaging",,,3.49 µM
C/C=C(/C)C(=O)O[C@H]1C(C)=C[C@]23C(=O)[C@@H](C=C(CO)[C@@H](O)[C@]12O)[C@H]1[C@@H](C[C@H]3C)C1(C)C,B16-F10,"cytotoxicity, PrestoBlue",MEM with 10% FBS,30 min,135 µM
C[C@]1(c2nc3c(C(N)=O)cccc3[nH]2)CCCN1,UWB1289 (BRCA1 deficient),"cell growth, inhibitor, CellTiter-Glo",,7 days,1.8 µM
CCn1cc(-c2cc(Cn3ccoc3=N)cc3c2CCN([C@@H](C)c2cc(OC)ccn2)C3=O)c(C(F)(F)F)n1,LoVo,"cell growth, inhibitor",,120 h,1.95 µM

# A few entries again:
Structure (SMILES),cell line,assay,test system,conditions,EC50
C/C=C(/C)C(=O)O[C@H]1C(C)=C[C@]23C(=O)[C@@H](C=C(CO)[C@@H](O)[C@]12O)[C@H]1[C@@H](C[C@H]3C)C1(C)C,B16-F10,"cytotoxicity, PrestoBlue",MEM with 10% FBS,30 min,135 µM
CCn1cc(-c2cc(Cn3ccnc3)cc3c2CCN([C@H](c2cc(OC)ccn2)C2CC2)C3=O)c(C(F)(F)F)n1,CAMA-1,"cell growth, inhibitor",,120 h,6.86 µM
CC1(C)CCC(CN2CCN(c3ccc(C(=O)NS(=O)(=O)c4ccc(NCC5CCOCC5)c([N+](=O)[O-])c4)c(Oc4cnc5[nH]ccc5c4)c3)CC2)=C(c2ccc(Cl)cc2)C1,canine normal blood CD3+ T cells,cell killing,,24 h,1.99 µM
CCn1cc(-c2cc(Cn3ccoc3=N)cc3c2CCN([C@@H](C)c2cc(OC)ccn2)C3=O)c(C(F)(F)F)n1,LoVo,"cell growth, inhibitor",,120 h,1.95 µM
